{"data": "Measurements pooled from the literature", "note": "Numbered parts are unrelated; each lists some results of a single study. Positions count from the first letter of the parent shown.", "sequence of UniProt Q12866 (whole entry, looked up)": "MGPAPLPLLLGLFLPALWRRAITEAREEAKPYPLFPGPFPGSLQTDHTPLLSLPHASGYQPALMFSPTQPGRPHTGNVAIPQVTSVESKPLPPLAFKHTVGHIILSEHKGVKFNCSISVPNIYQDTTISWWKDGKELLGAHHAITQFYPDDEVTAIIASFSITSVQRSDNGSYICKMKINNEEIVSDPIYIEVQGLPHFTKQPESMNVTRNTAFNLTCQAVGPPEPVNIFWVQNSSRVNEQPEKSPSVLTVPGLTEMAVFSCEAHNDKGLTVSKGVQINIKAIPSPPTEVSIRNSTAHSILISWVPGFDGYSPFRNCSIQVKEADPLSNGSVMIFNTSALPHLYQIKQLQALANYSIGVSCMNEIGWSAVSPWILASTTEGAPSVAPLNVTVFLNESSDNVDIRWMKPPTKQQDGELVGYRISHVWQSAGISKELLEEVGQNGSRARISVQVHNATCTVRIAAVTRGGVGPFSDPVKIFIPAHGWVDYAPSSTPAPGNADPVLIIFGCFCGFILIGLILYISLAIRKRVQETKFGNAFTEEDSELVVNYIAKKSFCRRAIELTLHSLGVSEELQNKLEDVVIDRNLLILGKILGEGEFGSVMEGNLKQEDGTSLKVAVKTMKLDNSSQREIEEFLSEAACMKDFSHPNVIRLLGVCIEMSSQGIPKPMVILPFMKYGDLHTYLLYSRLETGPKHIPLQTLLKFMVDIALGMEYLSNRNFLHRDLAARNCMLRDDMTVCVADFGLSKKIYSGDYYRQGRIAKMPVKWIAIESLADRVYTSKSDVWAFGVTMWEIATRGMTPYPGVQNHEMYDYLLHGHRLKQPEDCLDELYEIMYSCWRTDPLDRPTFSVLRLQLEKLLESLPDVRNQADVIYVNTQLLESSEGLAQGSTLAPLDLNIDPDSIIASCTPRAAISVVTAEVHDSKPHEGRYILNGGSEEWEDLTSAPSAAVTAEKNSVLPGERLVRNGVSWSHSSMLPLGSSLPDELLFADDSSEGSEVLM", "sequence of UniProt P30291 (whole entry, looked up)": "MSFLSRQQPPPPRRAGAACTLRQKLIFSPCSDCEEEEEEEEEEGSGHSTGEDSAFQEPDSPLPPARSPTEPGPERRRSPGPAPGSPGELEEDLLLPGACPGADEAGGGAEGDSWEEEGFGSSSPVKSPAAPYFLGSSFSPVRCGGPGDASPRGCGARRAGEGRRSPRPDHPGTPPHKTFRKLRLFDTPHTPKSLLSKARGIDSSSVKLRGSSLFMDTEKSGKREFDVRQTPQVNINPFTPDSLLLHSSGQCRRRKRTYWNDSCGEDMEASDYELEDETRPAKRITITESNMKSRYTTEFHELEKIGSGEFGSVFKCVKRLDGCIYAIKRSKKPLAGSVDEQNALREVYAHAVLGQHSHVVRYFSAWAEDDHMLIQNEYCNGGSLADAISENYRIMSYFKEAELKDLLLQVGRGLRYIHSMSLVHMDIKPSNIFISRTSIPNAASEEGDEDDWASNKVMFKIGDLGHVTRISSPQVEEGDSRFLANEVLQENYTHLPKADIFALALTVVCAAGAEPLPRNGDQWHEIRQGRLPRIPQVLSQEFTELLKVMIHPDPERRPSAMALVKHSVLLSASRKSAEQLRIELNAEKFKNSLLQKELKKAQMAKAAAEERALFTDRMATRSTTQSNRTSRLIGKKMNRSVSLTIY", "sequence of UniProt P29320 (whole entry, looked up)": "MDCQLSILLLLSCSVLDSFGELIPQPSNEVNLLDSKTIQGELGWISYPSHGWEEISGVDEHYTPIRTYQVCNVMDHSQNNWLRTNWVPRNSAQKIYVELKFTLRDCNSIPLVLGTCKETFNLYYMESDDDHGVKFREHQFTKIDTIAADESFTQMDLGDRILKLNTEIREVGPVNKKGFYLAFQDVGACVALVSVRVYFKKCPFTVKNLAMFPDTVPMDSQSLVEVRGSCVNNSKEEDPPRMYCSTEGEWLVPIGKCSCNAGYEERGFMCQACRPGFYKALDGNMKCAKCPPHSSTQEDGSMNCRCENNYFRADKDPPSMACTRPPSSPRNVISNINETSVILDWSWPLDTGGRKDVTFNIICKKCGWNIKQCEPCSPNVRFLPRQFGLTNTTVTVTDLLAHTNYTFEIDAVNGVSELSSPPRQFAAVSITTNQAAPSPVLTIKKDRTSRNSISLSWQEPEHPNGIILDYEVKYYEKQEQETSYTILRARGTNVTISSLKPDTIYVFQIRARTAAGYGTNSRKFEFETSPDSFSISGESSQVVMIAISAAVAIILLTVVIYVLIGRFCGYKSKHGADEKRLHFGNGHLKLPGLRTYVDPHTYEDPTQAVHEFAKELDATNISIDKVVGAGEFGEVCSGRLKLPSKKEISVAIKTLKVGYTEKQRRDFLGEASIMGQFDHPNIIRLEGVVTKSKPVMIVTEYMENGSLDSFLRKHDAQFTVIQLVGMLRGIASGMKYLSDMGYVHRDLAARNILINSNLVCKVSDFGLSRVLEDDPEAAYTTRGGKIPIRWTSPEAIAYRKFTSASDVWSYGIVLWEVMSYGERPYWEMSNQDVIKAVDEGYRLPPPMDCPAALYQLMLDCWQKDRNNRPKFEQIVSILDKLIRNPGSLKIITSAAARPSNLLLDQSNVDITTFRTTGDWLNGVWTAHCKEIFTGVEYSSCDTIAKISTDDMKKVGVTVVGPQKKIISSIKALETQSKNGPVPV", "sequence of UniProt P78368 (whole entry, looked up)": "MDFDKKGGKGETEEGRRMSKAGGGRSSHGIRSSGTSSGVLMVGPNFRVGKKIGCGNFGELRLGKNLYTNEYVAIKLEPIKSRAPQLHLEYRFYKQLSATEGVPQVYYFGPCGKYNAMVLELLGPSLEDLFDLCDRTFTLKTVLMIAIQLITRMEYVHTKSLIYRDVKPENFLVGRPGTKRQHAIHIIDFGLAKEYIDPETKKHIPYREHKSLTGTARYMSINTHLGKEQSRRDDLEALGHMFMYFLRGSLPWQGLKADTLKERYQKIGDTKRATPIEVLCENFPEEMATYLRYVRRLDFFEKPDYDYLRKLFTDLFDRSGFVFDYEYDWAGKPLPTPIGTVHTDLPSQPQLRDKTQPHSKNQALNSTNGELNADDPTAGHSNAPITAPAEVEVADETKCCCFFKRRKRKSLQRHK", "sequence of UniProt P06239 (whole entry, looked up)": "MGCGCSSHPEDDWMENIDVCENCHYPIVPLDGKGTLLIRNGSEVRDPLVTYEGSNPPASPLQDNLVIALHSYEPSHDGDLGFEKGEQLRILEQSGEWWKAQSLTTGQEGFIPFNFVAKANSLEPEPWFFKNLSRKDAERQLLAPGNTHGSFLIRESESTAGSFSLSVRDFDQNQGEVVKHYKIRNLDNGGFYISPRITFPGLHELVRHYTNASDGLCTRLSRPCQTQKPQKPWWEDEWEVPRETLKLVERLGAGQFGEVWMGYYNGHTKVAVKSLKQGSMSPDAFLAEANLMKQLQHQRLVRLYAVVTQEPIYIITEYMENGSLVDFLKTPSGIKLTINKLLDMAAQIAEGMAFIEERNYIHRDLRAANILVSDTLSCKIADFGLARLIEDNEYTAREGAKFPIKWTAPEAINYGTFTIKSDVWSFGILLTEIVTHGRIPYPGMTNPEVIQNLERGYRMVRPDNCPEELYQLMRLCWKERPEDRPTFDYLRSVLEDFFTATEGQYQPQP", "sequence of UniProt Q8IYT8 (whole entry, looked up)": "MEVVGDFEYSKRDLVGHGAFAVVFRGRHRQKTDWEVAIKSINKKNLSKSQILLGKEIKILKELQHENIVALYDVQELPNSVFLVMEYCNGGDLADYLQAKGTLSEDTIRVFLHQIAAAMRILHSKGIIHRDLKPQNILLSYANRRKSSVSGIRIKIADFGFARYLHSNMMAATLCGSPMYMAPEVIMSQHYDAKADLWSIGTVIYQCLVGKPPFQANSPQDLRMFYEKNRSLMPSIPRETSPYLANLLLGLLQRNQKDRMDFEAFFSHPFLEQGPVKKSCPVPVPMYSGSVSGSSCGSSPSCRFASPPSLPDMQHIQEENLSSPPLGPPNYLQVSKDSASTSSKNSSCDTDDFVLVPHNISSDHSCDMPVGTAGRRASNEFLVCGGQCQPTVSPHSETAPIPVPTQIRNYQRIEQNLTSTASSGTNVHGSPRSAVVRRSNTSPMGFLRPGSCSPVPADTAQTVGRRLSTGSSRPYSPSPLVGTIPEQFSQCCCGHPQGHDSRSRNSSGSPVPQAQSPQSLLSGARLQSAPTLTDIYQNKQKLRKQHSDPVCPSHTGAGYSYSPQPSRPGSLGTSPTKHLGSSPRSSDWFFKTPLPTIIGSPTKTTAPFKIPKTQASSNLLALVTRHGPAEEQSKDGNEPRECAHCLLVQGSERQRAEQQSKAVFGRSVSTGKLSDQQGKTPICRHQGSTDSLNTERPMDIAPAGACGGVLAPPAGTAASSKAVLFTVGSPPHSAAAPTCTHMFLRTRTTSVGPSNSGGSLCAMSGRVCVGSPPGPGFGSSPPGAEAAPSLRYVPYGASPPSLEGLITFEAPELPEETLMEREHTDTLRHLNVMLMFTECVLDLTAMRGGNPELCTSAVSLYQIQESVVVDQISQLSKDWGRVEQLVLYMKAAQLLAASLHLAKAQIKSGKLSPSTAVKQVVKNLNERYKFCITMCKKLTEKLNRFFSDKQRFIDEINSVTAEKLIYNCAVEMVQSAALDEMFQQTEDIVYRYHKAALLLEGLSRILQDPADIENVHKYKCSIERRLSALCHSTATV"}
{"data": "Block 1", "target": "Histone acetyltransferase KAT6A, both winged helices, GST fusion (KAT6A, Homo sapiens, UniProt Q92794, residues 1-181)", "method": "protein binding microarray", "form": "double-stranded DNA, one strand shown", "matrix": "in vitro", "concentration": "not given", "setting": "8-mer, flanks averaged, mean of 2 arrays, mostly near background", "relative to": "not given", "reading": "higher = stronger binding", "Construct (chain)": "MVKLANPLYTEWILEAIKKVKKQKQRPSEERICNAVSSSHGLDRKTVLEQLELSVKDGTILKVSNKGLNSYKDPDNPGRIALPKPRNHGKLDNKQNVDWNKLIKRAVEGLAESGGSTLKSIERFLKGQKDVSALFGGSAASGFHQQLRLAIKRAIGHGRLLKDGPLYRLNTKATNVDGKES"}
{"Sequence": "AATGGACC", "E-score": -0.0631}
{"Sequence": "CAGTGCTC", "E-score": -0.177}
{"Sequence": "AATTCATA", "E-score": 0.0397}
{"Sequence": "ATATACAG", "E-score": -0.143}
{"Sequence": "ACGCTACT", "E-score": 0.14}
{"Sequence": "ATTGTAAA", "E-score": -0.0786}
{"Sequence": "ACAACGCA", "E-score": 0.134}
{"Sequence": "TGAAGTCA", "E-score": -0.146}
{"data": "Block 2", "target": "CCNF, cyclin fold, Cln2 fusion (human)", "method": "yeast growth competition, sequencing", "matrix": "yeast", "setting": "strong parent motif", "relative to": "not given", "reading": "higher = stronger binding", "parent": "E2F1 docking peptide (human); PPVKRRLDLETDH"}
{"Substitution": "PPVKIRLDLETDH [R5I]", "normalised enrichment score": -0.048}
{"Substitution": "PKVKRRLDLETDH [P2K]", "normalised enrichment score": 7.37}
{"Substitution": "PPVKRREDLETDH [L7E]", "normalised enrichment score": 0.268}
{"Substitution": "PPVKERLDLETDH [R5E]", "normalised enrichment score": 0.451}
{"Substitution": "PPVKRRLDLENDH [T11N]", "normalised enrichment score": 5.62}
{"Substitution": "PPVKRRDDLETDH [L7D]", "normalised enrichment score": 0.547}
{"Substitution": "PPVKRCLDLETDH [R6C]", "normalised enrichment score": 4.75}
{"Substitution": "PPVKRRLDLMTDH [E10M]", "normalised enrichment score": 6.3}
{"data": "Block 3", "target": "Translocator protein (Tspo, Rattus norvegicus, UniProt P16257)", "effect on": "radioligand binding", "method": "radioligand displacement", "concentration": "10 µM", "sequence of UniProt P16257 (whole entry, looked up)": "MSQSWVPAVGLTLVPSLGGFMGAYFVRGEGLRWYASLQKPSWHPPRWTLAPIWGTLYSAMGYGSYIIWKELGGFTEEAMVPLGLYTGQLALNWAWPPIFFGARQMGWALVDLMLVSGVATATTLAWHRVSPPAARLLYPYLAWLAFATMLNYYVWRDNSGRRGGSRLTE"}
{"Structure (SMILES)": "COCCc1ccc(-c2c(C)nc3c(N4CCOCC4)ccnn23)cn1", "inhibition [%]": 2.18}
{"Structure (SMILES)": "CO[C@@H](C)c1c(Nc2ccc([C@H](N(C)C(=O)C3CCS(=O)(=O)CC3)C(F)(F)F)cc2)cnc2cc(Cl)nn12", "inhibition [%]": 11.6}
{"Structure (SMILES)": "Cc1ccc2nc(CNCCCOc3ccccc3)cc(O)c2c1", "inhibition [%]": 8.58}
{"Structure (SMILES)": "CC1=C(C#N)C(c2ccc3[nH]nc(C)c3c2)C(C#N)=C(C)N1", "inhibition [%]": -12.3}
{"Structure (SMILES)": "CCOCCn1cc(C(=O)Nc2ccc(-n3nc(-c4cccnc4)cc3C(F)(F)F)cn2)ccc1=O", "inhibition [%]": -5.52}
{"Structure (SMILES)": "O=C(Nc1cnc(Oc2ccc(F)cc2)nc1)N1CCc2ncccc2[C@@H]1c1ccc(F)cc1", "inhibition [%]": 44.6}
{"Structure (SMILES)": "C[C@H](NC(=O)c1cnc2n1[C@](C)(Cc1ccc(C#N)cc1)C(=O)N2c1cc(Cl)c(F)c(Cl)c1)C(=O)NC1(c2ccccn2)CC1", "inhibition [%]": 13.1}
{"Structure (SMILES)": "O=C(O)c1cc(-c2ccc(C3CCNCC3)cc2)c2ccc(-c3ccc(C(F)(F)F)cc3)cc2c1", "inhibition [%]": -29.8}
{"Structure (SMILES)": "Cc1cnc(-c2cc(Cl)ccc2F)cc1-n1c(=O)n(CC(N)=O)c2cnccc21", "inhibition [%]": -8.98}
{"Structure (SMILES)": "CCCCN(CCCC)C(=O)CN1C[C@H](c2cc(OC)c3c(c2)OCO3)[C@@H](C(=O)O)[C@@H]1CC(C)(C)CCC", "inhibition [%]": 43.2}
{"Structure (SMILES)": "O=C(O)[C@@H]1[C@@H](Cn2nnc3ccccc3c2=O)CC[C@H]1C(=O)c1ccc(OCCC2CCOCC2)cc1", "inhibition [%]": 13.4}
{"Structure (SMILES)": "COc1ccc2c(c1)O[C@@H](c1ccc(OC)c(OC)c1)C[C@H]2NC(=O)C1(c2ccc3c(c2)OC(F)(F)O3)CC1 (single isomer, unassigned)", "inhibition [%]": 90.5}
{"Structure (SMILES)": "CC(=O)c1c(NS(C)(=O)=O)c2cc(-c3ccc(Cl)cc3)c(-c3ccc(Cl)cc3Cl)nc2n(C)c1=O", "inhibition [%]": 36.9}
{"Structure (SMILES)": "Cc1nc(Cc2cccc(C(F)(F)F)c2)sc1-c1ccc(C(N)=O)nc1", "inhibition [%]": 4.9}
{"Structure (SMILES)": "CC1=C(C#N)[C@@H](c2ccc3[nH]nc(C)c3c2)C(C#N)=C(c2ccc(Cl)cc2)N1", "inhibition [%]": 69.6}
{"Structure (SMILES)": "Cn1cc(Cl)c2c(Oc3c(F)cc(Nc4cc(Cl)nc(N)n4)cc3F)ccnc21", "inhibition [%]": -10.3}
{"Structure (SMILES)": "O=C(NCc1ncc(C(F)(F)F)cc1Cl)c1ccc2c(c1)C1(CCS(=O)(=O)CC1)[C@@H](C1CC1)N2S(=O)(=O)c1ccc(F)cc1", "inhibition [%]": -27.9}
{"Structure (SMILES)": "O=S(=O)(NC1CCC(c2cc(F)ccc2F)(S(=O)(=O)c2ccc(Cl)cc2)CC1)C(F)(F)F (stereo not shown)", "inhibition [%]": 37.2}
{"Structure (SMILES)": "O[C@]1(C(F)(F)F)CCCC[C@H]1Nc1ccc(F)cc1", "inhibition [%]": 2.79}
{"Structure (SMILES)": "CNCc1ccccc1-c1csc([C@@H](C)Nc2nc(C)nc3cc(OC)c(OC)cc23)c1", "inhibition [%]": 13.1}
{"Structure (SMILES)": "Cc1nc(N2CC[C@@H](O)C2)ncc1-c1cc(C(F)(F)F)cc2[nH]ncc12", "inhibition [%]": 1.57}
{"Structure (SMILES)": "CC1CCN(c2ccnc(NCc3cn(C)cn3)n2)CC1", "inhibition [%]": 17.9}
{"data": "Block 4", "Compound": "Cc1cc(Nc2nc(-c3ccccc3)nc3ccccc23)n[nH]1", "effect on": "enzyme activity", "mode": "inhibitor", "concentration": "0.5 µM", "relative to": "control"}
{"target": "FGFR1 (Homo sapiens, UniProt P11362)", "remaining activity [%]": 48.8}
{"target": "WEE1 (Homo sapiens, UniProt P30291)", "remaining activity [%]": 88}
{"target": "CSNK1G2 (Homo sapiens, UniProt P78368)", "remaining activity [%]": 69.3}
{"target": "TBK1 (Homo sapiens, UniProt Q9UHD2)", "remaining activity [%]": 53.8}
{"target": "MAP3K14 (Homo sapiens, UniProt Q99558)", "remaining activity [%]": 93.5}
{"target": "ABL2 (Homo sapiens, UniProt P42684)", "remaining activity [%]": 42.5}
{"target": "RPS6KA2 (Homo sapiens, UniProt Q15349)", "remaining activity [%]": 50.7}
{"target": "ULK2 (Homo sapiens, UniProt Q8IYT8)", "remaining activity [%]": 95.1}
{"target": "MAP3K5 (Homo sapiens, UniProt Q99683)", "remaining activity [%]": 99.5}
{"target": "EPHA3 (Homo sapiens, UniProt P29320)", "remaining activity [%]": 88.9}
{"target": "TEK (Homo sapiens, UniProt Q02763)", "remaining activity [%]": 104}
{"target": "LCK (Homo sapiens, UniProt P06239)", "remaining activity [%]": 75.6}
{"target": "NEK1 (Homo sapiens, UniProt Q96PY6)", "remaining activity [%]": 93}
{"target": "MERTK (Homo sapiens, UniProt Q12866)", "remaining activity [%]": 72.2}
{"note": "For quick reference, copied from above (block 2):"}
{"Substitution": "PPVKIRLDLETDH [R5I]", "normalised enrichment score": -0.048}
{"Substitution": "PPVKERLDLETDH [R5E]", "normalised enrichment score": 0.451}
{"Substitution": "PPVKRREDLETDH [L7E]", "normalised enrichment score": 0.268}
{"Substitution": "PPVKRRLDLENDH [T11N]", "normalised enrichment score": 5.62}
